# Measured values from different studies.
# A part holds a random share of what one study measured.

# Set 1
# Target: Prothrombin, mature alpha-thrombin (F2, Homo sapiens, UniProt P00734)
# Method: aptamer microarray, sandwich
# Molecule type: DNA with 2'F-ANA
# Medium: in vitro
# Tested at: 200 nM
# Setting: whole 15-mer aptamer, many near background
# With: Cy3 exosite-II aptamer, 400 nM
# Reading: higher = stronger binding
# Strand: GGTTGGTGTGGTTGG
Modification,mean fluorescence intensity [a.u.]
2'F-ANA at 1 2 4 5 6 7 8 10,48.1
2'F-ANA at 1 3 6 7 8 9 12 15,577
2'F-ANA at 2 4 5 7 8 9 10 11 13 14 15,48.8
2'F-ANA at 3 4 5 6 9 11 12 14 15,50.3
2'F-ANA at 2 3 4 5 7 9 10 12 15,62.2
2'F-ANA at 6 7 12 13 15,473
2'F-ANA at 4 8 9 10 11 13 14 15,54.6
2'F-ANA at 1 5 6 9 11 12 13 14 15,58.8
2'F-ANA at 5 7 11 15,70.4
2'F-ANA at 2 3 4 6 7 9 10 11 12 14 15,151
2'F-ANA at 4 8 12 15,615
2'F-ANA at 1 4 7 12 14,62.4
2'F-ANA at 1 5 8 9 12,136
2'F-ANA at 1 3 5 6 12 13,112
2'F-ANA at 2 3 5 7 8 9 11 12 13 14,62.7
2'F-ANA at 1 3 5 8 9 10 11 12 13,50

# Set 2
# Target: RNA binding protein fox-1 homolog 2, RRM domain, GST-SBP tag (RBFOX2, Homo sapiens, UniProt O43251-10, residues 100-194)
# Method: RNA Bind-n-Seq
# Molecule type: RNA
# Medium: in vitro
# Tested at: 365 nM
# Setting: natural RNA segment, single round, ends assumed
# Baseline: no-protein control
# Reading: higher = stronger binding
# All sequences stand within: GGGAGUUCUACAGUCCGACGAUC … UGGAAUUCUCGGGUGCCAA
# Construct (chain): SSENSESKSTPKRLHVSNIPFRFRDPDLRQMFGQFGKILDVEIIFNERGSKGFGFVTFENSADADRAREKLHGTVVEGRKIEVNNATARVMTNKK
Strand,RBNS enrichment (R)
ACACUGGCUAUUGGUGGUGACUACUUUCUCAAGCCCUGGCUCCCCCAAGACAGUCUUUCCUAACUGCCUCCCUACUUGGAGUAGUCACAUACUCAAGUGCACACCACAGC,0.334
UUAAUUAGCUAGCUAGAGUCAGUUGAUAUCUCUACCAAGCUGAAGCCUAGUACCUACGAAGCUAUUUCUUUACCAAAGUCUCUUGCUUCUGCUUAUGGUCGUGAGCUGAU,0.291
CUGCCUGGCAGGGACGCCAGUACUACUGUAACUGCAGCAGGAGCUGCCCGGCCUGCCUUCUGGCCCCACGCCCACAGGCGUAGUCACAUCUUUGUACUGUACUCCCCUGU,0.153
CUACAGGCCUAAGUUAUUGUUUGCAUAAAAAGAAUCAUGUUCCCUGUGUACAUUUAAGAAAAAAACAAAAAAACGGAAAUGUCAGAAUUGUAUGGAAAUAAAACUUGUUU,0.512
CCUCCAUCCCAUAAAGUUGUACUGUGAACUGGAAGAUGGUGGAAUGUUUUGGAAUUUGAUAGACUUUCGGCAACCAGUUCUACUAAUGCUUCACUCCUGGCUCUGUUCAG,0.698
CUGUCCCGACACAGCGACGCUCCCCUGAGAGGUUUCUGGGGCCCGCUGCGUGCCAUCACUCAACCAUAACACUUGAUGCCGUUUCUUUCAAUAUUUAUUUCCAGAGUCCG,0.506
AAAACAAGGUGUUCCUUGAUUUAUAAUCCUUCUUGUUUAUGCUGUGUUCUUUGAUUUAUAAUCCUUGUUUGCUCAAUAAAAAGAAAAAAUAAUUUGAUUCAUUUGCCCUC,0.309
UGGCCCAAGGGGUUAAGUGGGAACAAUCAUUAUACGGACUCUUCAGAUUUACAGAGAACUUACACUUCAUCUGUUCCACCUCUCCUGCGAUAGUCCUGGGUGCUCCACUG,0.338

# Set 3
# Target: Fragile X messenger ribonucleoprotein 1, C-terminal low-complexity region (Fmr1, Mus musculus, UniProt P35922)
# Method: RNA Bind-n-Seq
# Molecule type: RNA
# Medium: in vitro
# Tested at: 200 nM
# Setting: whole 134-nt RNA, ends assumed
# With: 150 mM LiCl
# Baseline: input library
# Reading: higher = stronger binding
# Each molecule: 7-deaza-guanosine replaces G
# All sequences stand within: GGGAGUUCUACAGUCCGACGAUC … UGGAAUUCUCGGGUGUCAAGG
Strand,log2 enrichment
UCAUUAGAAGAUCUAAUUGAGAGAGAGGUAACUGGUAUCCUUUUCCUACCAUAAAAACUGAAAGCAGUAUUUAUUGUGAAAUUCUAAUAC,-0.363
UCCUGUGCUACACAUCGUAUGUACCGAAUCGGGAAAAAAAGGAAAAAAAGGAAAAAAAGGAAAGUAUUAUGUUACGCCGUUCGGAUCUGC,-0.342
CACAGACAACACGCACCCACACAGACACAGAGGGAAGGGGUUGGGCUGGGGACAGGGUGCACAGCAGGGCGGGGUAGGACCCCAGCCCCU,-0.282
GUCCUGUGCUACACAUCGUAUGUACCGAAUCGGAAAAAGGUUUUUUUGGAAAAAAAGGAAAGUAUUAUGUUACGCCGUUCGGAUCUGCAC,-2.26
CUCAAGUCCUGUGCUACACAUCGUAUGUACCGAAUCGGGAAGGGGAAGGAAGGGAAAGUAUUAUGUUACGCCGUUCGGAUCUGCACUUCC,-0.781
UUAUAAUUGAUGAUCAUCCUGAAGUAACAGUAAUUGAAGAUCCCCAGUCAAAUUUGAAUGAUGAUGGUUUUACUGAAGUGGUAUCCAAAA,-2.53
CCUCAAGUCCUGUGCUACACAUCGUAUGUACCGAAUCGGGCGGGGCGGGCGGGAAAGUAUUAUGUUACGCCGUUCGGAUCUGCACUUCCA,-0.966
UGGCCCUGGUGGCAUGUGGGGAGGAAGAGGUGGCCUCAUGGAUCGUGGUGGUCCCGGUGGAAUGUUCAGAGGUGGCCGUGGUGGAGACAG,0.256

# Set 4
# Target: Histone acetyltransferase KAT6A, winged helix 1, GST fusion (KAT6A, Homo sapiens, UniProt Q92794, residues 1-85)
# Method: protein binding microarray
# Molecule type: double-stranded DNA, one strand shown
# Medium: in vitro
# Tested at: not given
# Setting: 8-mer, flanks averaged, mean of 2 arrays, mostly near background
# Baseline: not given
# Reading: higher = stronger binding
# Construct (chain): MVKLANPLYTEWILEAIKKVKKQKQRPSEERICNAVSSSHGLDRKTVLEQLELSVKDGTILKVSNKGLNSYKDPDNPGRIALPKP
Strand,E-score
ACTGACTA,-0.316
AAACCGTT,-0.0555
CCGTTAAG,0.132
AGGATGGA,-0.166
GGGGTTAC,0.198
ACCTTCTA,-0.197
AATTAAAC,-0.211
CCGTCCCA,0.0926
TCTAACAA,-0.119
GGAACTCA,-0.113
AGTTACTA,-0.175
AGACGAAA,0.0363
CGTGTTTC,0.102
ACAGATCA,-0.181
CAGGGCTA,-0.0928
ACATCTTA,-0.28
ACCTCCCA,-0.22
GCCGGTCA,0.24
CTACACAG,-0.149
CCCAGGGC,-0.0526
ACTATAAA,-0.141
CGTCGATA,0.227
CTGTTTCC,-0.127
AACCCGTG,0.274
ATCACAGC,-0.0071

# Set 5
# Target: Transcription factor Sp1 (SP1, Homo sapiens, UniProt P08047, residues 1-785, full length assumed)
# Chain of UniProt P08047 (whole entry, looked up): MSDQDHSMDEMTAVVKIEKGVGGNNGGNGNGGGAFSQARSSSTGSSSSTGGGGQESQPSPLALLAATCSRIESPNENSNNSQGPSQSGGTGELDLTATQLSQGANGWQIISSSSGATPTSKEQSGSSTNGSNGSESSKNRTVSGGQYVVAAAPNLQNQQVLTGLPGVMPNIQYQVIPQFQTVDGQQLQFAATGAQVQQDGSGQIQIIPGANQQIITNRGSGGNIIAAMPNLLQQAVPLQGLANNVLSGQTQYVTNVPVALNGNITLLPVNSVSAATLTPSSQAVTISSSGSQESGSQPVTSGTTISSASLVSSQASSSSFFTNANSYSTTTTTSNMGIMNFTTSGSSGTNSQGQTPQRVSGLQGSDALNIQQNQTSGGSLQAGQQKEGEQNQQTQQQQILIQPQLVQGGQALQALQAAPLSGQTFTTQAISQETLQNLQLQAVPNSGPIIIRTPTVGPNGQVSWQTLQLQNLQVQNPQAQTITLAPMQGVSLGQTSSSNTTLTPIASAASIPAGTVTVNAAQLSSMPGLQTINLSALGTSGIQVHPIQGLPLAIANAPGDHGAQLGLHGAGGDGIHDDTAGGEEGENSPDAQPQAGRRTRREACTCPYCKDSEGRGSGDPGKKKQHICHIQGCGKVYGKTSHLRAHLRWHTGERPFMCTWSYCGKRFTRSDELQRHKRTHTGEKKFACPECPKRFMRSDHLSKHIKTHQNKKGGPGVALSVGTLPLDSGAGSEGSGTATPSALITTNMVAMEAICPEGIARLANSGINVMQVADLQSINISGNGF
# Method: protein-binding microarray
# Molecule type: double-stranded DNA, one strand shown
# Medium: in vitro
# Tested at: not given
# Setting: k-mer, scored over probes, only values ≥0.25
# Reading: higher = stronger binding
Strand,E-score
TATCCCCA,0.357
CCACGCCC,0.482
CATATATA,0.261
CACCCCCA,0.293
ATGGTGTG,0.251
CACACAAC,0.28
ATCTGTAC,0.282
GCGGGGTA,0.388
GATGGGGA,0.308
AGTGGGAT,0.299
AATGTAGT,0.251
CCCCTCAC,0.391
ACATGGTA,0.256
ATCCCGAT,0.265
CCCGCCAC,0.304
CAGGGGCG,0.335
CCACCCAC,0.411
AGGGAGGG,0.447
AGGGGCGG,0.491
CGCGTTAC,0.264
GGGCGGCA,0.303
GTATGATA,0.31
CCCCACAA,0.325
ACCCCTCC,0.471
ACATACGA,0.274
